Measured values of several laboratories.
Each numbered part is a random draw from the data of one study; scales do not carry over between parts. Changes are numbered by the printed parent chain.

Sample 1
Target: RING finger protein unkempt homolog, zinc fingers 1-6, GST-SBP tag (UNK, Homo sapiens, UniProt Q9C0B0, residues 30-357)
Technique: RNA Bind-n-Seq
Form: RNA
Medium: in vitro
Tested at: not given
Notes: RNA with constant flanks, human and mouse sites, ends assumed
Baseline: input RNA pool
Reading: higher = stronger binding
Measurement: bound/input enrichment
Constant ends, left off below: GGGAGUUCUACAGUCCGACGAUC … CAACAGAGGAUUGAGCAUCA
Construct (chain): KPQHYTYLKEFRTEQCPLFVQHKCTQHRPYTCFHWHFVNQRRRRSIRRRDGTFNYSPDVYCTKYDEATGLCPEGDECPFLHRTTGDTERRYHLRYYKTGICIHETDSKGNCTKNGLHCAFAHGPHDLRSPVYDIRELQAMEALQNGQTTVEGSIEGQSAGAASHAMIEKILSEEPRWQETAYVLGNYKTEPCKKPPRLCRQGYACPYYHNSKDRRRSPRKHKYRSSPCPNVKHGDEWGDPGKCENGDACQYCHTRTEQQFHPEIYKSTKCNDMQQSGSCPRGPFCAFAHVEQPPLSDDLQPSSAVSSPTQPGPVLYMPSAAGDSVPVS
AUGAUGAAAGGCGAGUUUUAUGUCAUUGAAUAUGCUGCUUGUGAUGCCACUUACAAUGAAAUAGUCACAUUUGAACGACUUCGGCCUGUCAAUCAAAAUAAAACUGUCAAAAAAAAUACC: 0.284 ratio
GCUAAGUGCACCUUGAAACGAUACACCAAUCAGACCUUUGAUAAGGUGAUGGGUCCCAUGUUGGAUGCUGCUACCAGAAAACCCAUCUGGCGACAUGAAAUUUUAGAUGCAGAUGGCAUU: 0.3 ratio
GCGUUUAUCUGUUGCACUUUUCAUGUCUGUUUGUCUCCCAAGUGUCGGCUACCCUGCCCUCAGAUAUAGGCCGGUUUUAUUUCUUGCUUUGGGUGUUUUGUUUGCCGUAUAUCUGUACAA: 0.347 ratio
GAACCUGCUCUUGCAUCAGUGGUAAUCCAUAAGGAGGCCACUGUCUUUGAUCUUCCUAAAUUUAGUGUUUGUGGUAGUUCUCAAGAGAGUGACUCAUUACCUAACUCAGCUCAUGAUCGA: 0.225 ratio
CCAAAUACUGAUGACCUGUUCAAAGCAGUUGGUGAUGGGAUCGUGCUCUGCAAAAUGAUCAACCUUUCAGUUCCUGAUACAAUUGACGAGAGAGCAAUCAAUAAGAAGAAGCUUACACCC: 0.0537 ratio
AGAAAGCUUUUAAGUUCUUUGCAGUAUAAUAAGAAUUUGCUAAAAUAUUUAAAUGAUGAUAGGCAGAAGCAACCAUCUUUUUGUGAUUUACUUAUCAUAGUGGAAGGAAAAGAAUUUAGU: 1.04 ratio
CUGGCACUCUAUCAGAUAUAUUAAUUUUUUAAUGUAGAUGUAAUUUUAAAAAUGAAUGGCUACUUUACACGUUUAACUAGGGUUUUACUAUAUAUGUGUACAUAUGUAUAUAUAUAUAUA: 8.14 ratio
UCCUACAAUAAGCAGAUGCGACCUGCAAUUUUAGAUCACUGUUCGGGAAAUAAGUGGACAAACACAUCUCAUCACCCUGAGUAUUUAGUAGGAGAAGAGGCCUUGUAUGUUAAUCCACUG: 0.416 ratio

Sample 2
Target: RNA binding protein fox-1 homolog 2, RRM domain, GST-SBP tag (RBFOX2, Homo sapiens, UniProt O43251-10, residues 100-194)
Technique: RNA Bind-n-Seq
Form: RNA
Medium: in vitro
Tested at: 365 nM
Notes: natural RNA segment, single round, ends assumed
Baseline: no-protein control
Reading: higher = stronger binding
Measurement: RBNS enrichment (R)
Constant ends, left off below: GGGAGUUCUACAGUCCGACGAUC … UGGAAUUCUCGGGUGCCAA
Target sequence (chain): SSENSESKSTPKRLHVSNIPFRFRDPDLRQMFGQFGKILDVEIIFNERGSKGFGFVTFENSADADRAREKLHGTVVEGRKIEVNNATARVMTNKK
UUAUUCUUAUCUUUCCACCCAAACACCUACACAACGUUUAGGCUUCCUGUAAGGUUUGAAUGAGACAGAUGUACUCUGAAGGCUGGUGGUAAAUGUGUUUGAUGACCAGA: 0.664
GGAGGGCCUAGGUGGUAUCUCCGGCCCAGAUGUGAAUACCUCCAUAUUCCCUGUUGGUUCCUGUUUCACUGGCUGUUUUAGCUUUGUGUUGAUUGGUGUUUCUGAGCAUU: 0.28
ACCACACUCUGUAAACAGACCCAUUGAAUUAAUAAGGACUGGUGAUUCAUUUGUGUAACUCACUGAAGCCAAAAUACUAUCUUUUAAGAUGUCCCACAUGGAAGACGCUA: 0.434
UUAUAUUGAUCUUACCAAAUCAACACCACACAUAUUUAUUCUAACUAUAAAAAGCAAUAAAUGCAAACAAAACAAAAAAGUUCAUGGUAAAAUGACGGAAUCAGCAUGUG: 15.8
GGAUUCAGAUGGAAGCUUCGCAAGGCUGGGGGCCGAGGACCACCCACUUCUCUUUCCCAGCCCUAGUUCUGGGUUCCCCAGUGGGGCAAGGGGUGGUGGAGGCAGUGCCC: 0.181
GCCUUCCCUACCGGCCAUUUCCUUUAGCUCCCUCAAGGCUCUUGGGGAGUUUGCUUGGGGCUCUAAGUCUGGGGUAGGUUCUGGGCCUUCACAGAAUGAUGGCAUCUUCC: 0.487
UCCAUUAUCUAUAUAGUCCUGUCUUGUCUAUUGUAUAUAUAAUCUAUAUGAUUAAAGAAAAUAUGCAUAAUCAGACAAGCUUGAAUAUUGUUUUUGCACCAGACGAACAG: 0.388
AUACAUAGUGUCGAGCUUUAGAUUGGUAUGAAAUUAAACAGCAAUGCAAAUAGAUUUAAUUCCUAUUUACUUUAAGAAUGAAAAACAAUGUUCAUUUUCCUACCUAAACA: 1.4

Sample 3
Target: Centromere-binding protein 1, full length, His-tagged (CBF1, Saccharomyces cerevisiae, UniProt P17106, residues 1-351)
Chain of UniProt P17106 (whole entry, looked up): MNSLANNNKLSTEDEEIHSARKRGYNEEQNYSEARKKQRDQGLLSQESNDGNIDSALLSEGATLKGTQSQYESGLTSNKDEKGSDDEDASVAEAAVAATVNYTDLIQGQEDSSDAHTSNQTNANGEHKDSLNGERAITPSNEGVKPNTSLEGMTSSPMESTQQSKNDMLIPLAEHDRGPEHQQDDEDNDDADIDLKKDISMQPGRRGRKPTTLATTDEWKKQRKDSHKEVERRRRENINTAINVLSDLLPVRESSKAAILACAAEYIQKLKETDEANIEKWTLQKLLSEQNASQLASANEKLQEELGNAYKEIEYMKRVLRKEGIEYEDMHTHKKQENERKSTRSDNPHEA
Technique: competition protein-binding microarray
Form: double-stranded DNA, one strand shown
Medium: in vitro
Tested at: 2 µM
Notes: whole 60-bp probe, lowest competitor level
With: Pho4 competitor, 0.05 µM
Reading: higher = stronger binding
Measurement: fluorescence intensity
Constant ends, left off below: … GTCTTGATTCGCTTGACGCTGCTG
CGGCAAGACATGTCCCACGTTATAAGGCAATTTCCA: 73.2 a.u.
TGCGCAACAACTTGCTATGTGGGTGTATGTCTAGAA: 67.1 a.u.
TCGAGAACTTAGGGTAGCGTGCCAGAAAATTTGCAT: 117 a.u.
GTTATTCTCTAGTGTTTCGTGCTAAAATAACCGAGT: 100 a.u.
AATCTGGTACCTTTCCATGTGGCACTTCAAAATTTT: 70.2 a.u.
TGGCAAGTCTTGTAGCATGTGCGCTAACATCGTTTA: 123 a.u.
CATAAGAGGTTTGGACACGTTCTTAAGGCTAACTCC: 90.3 a.u.
CTAACGAAGGTTTGTGGAGTGGGTGACAAGCCAAGT: 60.2 a.u.
AAAGCGGTAATTTGTCACAATACTTCACATATCTAT: 104 a.u.
AAAGCGGTAATTTGTCACTCAACTTCACATATCTAT: 98.9 a.u.
ATAAAATTTCAGAATCACATGTTCGTAAAACAACCG: 1530 a.u.
GTCTTGTCTCATTGGTCGGTGGGTGTCCCCACTTCA: 76.3 a.u.
AAAGCGGTAATTTGGATCGTGGGTGCAGATATCTAT: 71.5 a.u.
CGTCCTAGTGATTGTCACCCGACTTCCATGAGGAAG: 78.6 a.u.
CAAAAGGCATGGCCTGGCGTGCAAAATCCGTTGTTT: 59.8 a.u.
TGCGCAACAACTTGAGCGGTGGGTGTATGTCTAGAA: 66.4 a.u.
CATACCCAACCTTTACACGTGTTTTAAGATATTTGT: 1430 a.u.
CATCCCAATAGAATCCACGTGGGTAAAAGCTACGGC: 943 a.u.
CGTCCTAGTGATTGGTGTGTGGGTGCCATGAGGAAG: 96.9 a.u.

Sample 4
Target: CCND2, cyclin fold, Cln2 fusion (human)
Technique: yeast growth competition, sequencing
Medium: yeast
Notes: weak parent motif
Baseline: not given
Reading: higher = stronger binding
Measurement: normalised enrichment score
Starting sequence: SGO1 docking peptide (human); PLAKRALKYTDEK
L2A: 0.451
K13A: -0.131
R5A: -0.188
K8A: 0.0921
L7A: -0.104
E12A: 0.168

Some of these lines once more (sample 4):
L2A: 0.451
K13A: -0.131
R5A: -0.188
K8A: 0.0921
